Assay results gathered from unrelated publications.
Numbered parts are unrelated; each lists some results of a single study.

Block 1
Target: RING finger protein unkempt homolog, zinc fingers 1-6, GST-SBP tag (UNK, Homo sapiens, UniProt Q9C0B0, residues 30-357)
Technique: RNA Bind-n-Seq
Molecule type: RNA
Sample: in vitro
Tested at: not given
Setting: RNA with constant flanks, human and mouse sites, ends assumed
Baseline: input RNA pool
Reading: higher = stronger binding
Constant ends, left off below: GGGAGUUCUACAGUCCGACGAUC … CAACAGAGGAUUGAGCAUCA
Target sequence (chain): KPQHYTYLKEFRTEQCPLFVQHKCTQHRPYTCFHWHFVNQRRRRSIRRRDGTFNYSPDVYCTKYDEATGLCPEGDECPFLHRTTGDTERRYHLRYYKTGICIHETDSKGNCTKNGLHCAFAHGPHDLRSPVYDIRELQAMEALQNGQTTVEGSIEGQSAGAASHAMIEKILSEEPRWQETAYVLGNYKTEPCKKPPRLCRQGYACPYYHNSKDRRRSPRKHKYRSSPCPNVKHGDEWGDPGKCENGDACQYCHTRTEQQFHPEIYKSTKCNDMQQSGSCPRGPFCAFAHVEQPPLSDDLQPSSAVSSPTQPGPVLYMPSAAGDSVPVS
With `GGGUUAUACCAGUAUAAGAACAUUUGUCAACAGGUGAACAUAAAAUCUCUGGAGGAUGUUGUUAGGGCAUAUUUGAAAAUGGCAGAGGAAAAAACUGAAGCUGCUAAAGAAGAAUCUCAG` the bound/input enrichment was 0.177 ratio.
`CUAACUAACUACACCUUUGAAAAUGUGAGCUUUCAUGUUCUUCAUCAGCGUUUUCCCCUCUUUACCUUUCGAGUCUUGUCAGACUGGUUUGAUAACAAGACAGAUCUAUACAGAUGGAAA` has a bound/input enrichment of 0.568 ratio.
For `UAUAUUCACUGUCUGCCUGGAAAUAGCCUUGGUUUACCUUAUUUUUUUGUAUAUGUAAAACUAUUCAUAUUUGAUUUUAUUCCAAUAUUAUAUAUGAUGGAAAAGCCAGAAUUGUCUGGC`, the bound/input enrichment was 1.83 ratio.
`CAAUCAAGCUACAGACAGUCGAGUCCAGGCGUGUGCAGCUGUGUGGAGGAUGCCCAAGGAAUUAGAAUCCGGUAGCCACGAGUCCCCUGACGACCCUGCAAGCACUGCUCAGACCCUGGA` has a bound/input enrichment of 0.0936 ratio.
The bound/input enrichment of `ACCCUAUUUGAAUUCUGAGCAUUAUUUAUAAGUAUAAAAUGAUGAUAUAUAAGUGAAUUUUGUGCUCUUGUUUGUAUUUUAUUAAGGAAAAUGAAAAUAAUCUGGCAUCAGUUUCAUUUU` is reported as 0.435 ratio.
The bound/input enrichment of `CUUGAAAGUUCGGGGGCAUUUUGUUGUGUUCUGUAGGAGAGAGGGGGAGGACCCUGUUCGGGUAGUUUGGCCGGACUGGUACUGGCCGUUGGAAAACCCGAAGUACAUUUCCGUGUGGAA` is reported as 0.186 ratio.
With `AUCUAGUUAGGGGUAACCAUUAAUUUAUUUUAUAAAGAAAGGAAAUGCUGAAAGUCGUAUUAGUACUGAGUUUAGUUGGAGAAUUUAGAUAAGUAAGUAUCUUUUAGGUAAUUCUAAAAU` the bound/input enrichment was 32 ratio.
With `AAACUGCAUUCCAGCGCCAGUCCCAGUGCUCAGCAGUACGAUGCUUCCAGUGCAGUACUUUUAGACAACCUCCCUGGAGUCCGGUGGCUCACACUUCCACUGGAAAUCAAGAUGGAAUUA` the bound/input enrichment was 0.241 ratio.

Block 2
Target: Ras GTPase-activating protein-binding protein 1, full length (G3BP1, Homo sapiens, UniProt Q13283)
UniProt Q13283, sequence (whole entry, looked up): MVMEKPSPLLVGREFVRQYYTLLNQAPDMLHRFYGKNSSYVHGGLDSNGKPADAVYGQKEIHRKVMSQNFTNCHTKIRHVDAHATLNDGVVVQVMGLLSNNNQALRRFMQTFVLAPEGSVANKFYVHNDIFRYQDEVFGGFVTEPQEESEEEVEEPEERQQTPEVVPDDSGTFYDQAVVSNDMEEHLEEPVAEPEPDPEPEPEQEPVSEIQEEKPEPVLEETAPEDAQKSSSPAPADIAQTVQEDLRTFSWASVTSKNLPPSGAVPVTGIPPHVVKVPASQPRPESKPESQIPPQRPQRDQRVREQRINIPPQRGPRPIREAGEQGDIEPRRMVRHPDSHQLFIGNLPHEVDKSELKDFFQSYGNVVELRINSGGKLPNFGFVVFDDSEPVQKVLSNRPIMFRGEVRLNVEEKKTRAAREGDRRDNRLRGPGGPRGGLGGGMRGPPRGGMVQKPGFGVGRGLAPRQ
Technique: RNA Bind-n-Seq
Molecule type: RNA
Sample: in vitro
Tested at: 200 nM
Setting: whole 134-nt RNA, ends assumed
With: 150 mM LiCl
Baseline: input library
Reading: higher = stronger binding
Each molecule: 7-deaza-guanosine replaces G
Constant ends, left off below: GGGAGUUCUACAGUCCGACGAUC … UGGAAUUCUCGGGUGUCAAGG
With `AGUCCUGUGCUACACAUCGUAUGUACCGAAUCGGCCCCCGGGGCCCCCGGCCCCCGGAAAGUAUUAUGUUACGCCGUUCGGAUCUGCACU` the log2 enrichment was -0.64.
With `CACAGACAACACGCACCCACACAGACACAGAGGGAAGGGGUUGGGAUGGAGACAGGGUGCACAGCAGGGCGGGGUAGGACCCCAGCCCCU` the log2 enrichment was 0.427.
With `UCCUCAAGUCCUGUGCUACACAUCGUAUGUACCGAAUCGGUGGGUGGUGGGGAAAGUAUUAUGUUACGCCGUUCGGAUCUGCACUUCCAG` the log2 enrichment was 0.883.
For `AAGUCCUGUGCUACACAUCGUAUGUACCGAAUCGGGAAAAAAAGGGUUUGGGAGGGAAAGUAUUAUGUUACGCCGUUCGGAUCUGCACUU`, the log2 enrichment was -0.911.
`GUCCUGUGCUACACAUCGUAUGUACCGAAUCGGGCCCCCGGGGCCCCCGGGCCCCCGGGAAAGUAUUAUGUUACGCCGUUCGGAUCUGCA` has a log2 enrichment of -1.65.
The log2 enrichment of `ACCAUGCAGGUGGGCAUCUUUGGGAAGUGGGGCAAGGGGGGGAUAGGGAUGGGGGUAACACUUUGGGAACAGGUGGUCCCAGGUCGUUUC` is reported as 0.34.
For `UGGGAGGUGGAAUUUGUUUAUUUUUUUAGCUCAUUUCCAGGGGUGGGAAUUUUUUUUUAAUAUGUGUCAUGAAUAAAGUUGUUUUUGAAA`, the log2 enrichment was 0.477.
The log2 enrichment of `CCUCAAGUCCUGUGCUACACAUCGUAUGUACCGAAUCGGGCCGGCCGGCCGGGAAAGUAUUAUGUUACGCCGUUCGGAUCUGCACUUCCA` is reported as 0.629.

Block 3
Target: Interferon regulatory factor 3, full length, phosphomimetic (IRF3, Homo sapiens, UniProt Q14653, residues 1-427, S386D/S396D/S398D/S402D/T404D/S405D)
Technique: protein-binding microarray
Molecule type: double-stranded DNA, one strand shown
Sample: in vitro
Tested at: 2540 nM top
Setting: 60-bp whole probe
With: salmon DNA 0.4 mg/ml
Baseline: random background probes
Reading: higher = stronger binding
Constant ends, left off below: GCCTAGCAC … GTCTTGATTCGCTTGACGCTGCTG
Target sequence (chain): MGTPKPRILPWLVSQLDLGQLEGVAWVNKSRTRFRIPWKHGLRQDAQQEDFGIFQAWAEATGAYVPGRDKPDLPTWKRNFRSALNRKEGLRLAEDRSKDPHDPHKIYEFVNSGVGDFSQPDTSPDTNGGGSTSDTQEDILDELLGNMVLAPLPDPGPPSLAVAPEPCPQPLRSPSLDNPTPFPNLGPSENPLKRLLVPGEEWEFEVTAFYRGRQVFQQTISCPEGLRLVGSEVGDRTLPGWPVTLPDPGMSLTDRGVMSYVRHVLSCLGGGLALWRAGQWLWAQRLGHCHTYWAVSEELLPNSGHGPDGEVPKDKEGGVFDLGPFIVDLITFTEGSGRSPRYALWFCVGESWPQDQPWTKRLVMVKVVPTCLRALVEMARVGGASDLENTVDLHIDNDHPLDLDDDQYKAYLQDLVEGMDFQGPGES
`TTAGGACTGCTACTGCTTTTGTGCTAG` — result for “fitted relative affinity”: -0.732 z-score.
Under “fitted relative affinity”, `CAGGGTCTCGCTTCATCTCCGTGCTAG` is recorded as -0.357 z-score.
`GACGGTATCGACACTGTGGACGTGCTA` — result for “fitted relative affinity”: 0.674 z-score.
For `TCAGTTCTCTTTTATTTACTGTGCTAG`, “fitted relative affinity” read 3.49 z-score.
`TTAGAACTGGGGTATCGATAAGTGCTA`: “fitted relative affinity” -0.602 z-score.
`TCACCTCTAACTTTCCAACTGTGCTAG`: “fitted relative affinity” 1.8 z-score.
For `GACGGTTCCGGTCTCGGGACGTGCTAG`, “fitted relative affinity” read 3.5 z-score.
`GACGGTTGCGGACTGGGGACGTGCTAG` — result for “fitted relative affinity”: 1.09 z-score.
Under “fitted relative affinity”, `TTAGGTTTCGGGCCTGGGTTAGTGCTA` is recorded as 2.12 z-score.
`GCCGGTTTCGGTTTCGGGACGTGCTAG`: “fitted relative affinity” 11.1 z-score.
Under “fitted relative affinity”, `TTAGGTTCCGGGACTGGGTTAGTGCTA` is recorded as 0.423 z-score.
`TTAGATTTCGGGTATCTATTAGTGCTA` — result for “fitted relative affinity”: 1.27 z-score.
For `TTAGGTTGCGGTTCCGGTTAGTGCTAG`, “fitted relative affinity” read 6.31 z-score.
For `TCAATTTTCCCCTACTGACTGTGCTAG`, “fitted relative affinity” read 1.68 z-score.
`TTAGGTATCTACTTTCGGTTAGTGCTA`: “fitted relative affinity” 2.41 z-score.
`TTACGTATCGGGTTTCGGTTAGTGCTA`: “fitted relative affinity” 3.93 z-score.
`TTAGATATGAGTATCGATTAGTGCTAG` — result for “fitted relative affinity”: 0.278 z-score.
For `TCAGTTTTGTTTTTCATACTGTGCTAG`, “fitted relative affinity” read 5.03 z-score.
`TCAAGCCTCCATTTTTAACTGTGCTAG` — result for “fitted relative affinity”: -0.182 z-score.

Block 4
Target: Histone acetyltransferase KAT6A, winged helix 1, GST fusion (KAT6A, Homo sapiens, UniProt Q92794, residues 1-85)
Technique: protein binding microarray
Molecule type: double-stranded DNA, one strand shown
Sample: in vitro
Tested at: not given
Setting: 8-mer, flanks averaged, mean of 2 arrays, mostly near background
Baseline: not given
Reading: higher = stronger binding
Construct (chain): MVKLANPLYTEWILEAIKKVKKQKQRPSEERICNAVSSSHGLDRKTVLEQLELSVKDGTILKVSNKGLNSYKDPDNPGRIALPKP
With `CTAAAGAA` the E-score was -0.00064.
With `ATTGTGAA` the E-score was -0.0756.
With `ATTGTACG` the E-score was 0.00795.
For `ACGCATCT`, the E-score was -0.0103.
`CGTGCGGC` has an E-score of 0.386.
`GTGCCGAA` gave an E-score of 0.172.
For `GGCCAAAC`, the E-score was 0.115.
`ACGCGCCG` gave an E-score of 0.41.
With `AGGACCAT` the E-score was -0.14.
`TAAGTATA` has an E-score of -0.0122.
`CGTAGAGA` gave an E-score of -0.0334.
`TAACCAAA` has an E-score of -0.22.
The E-score of `AAAGGCTG` is reported as -0.175.
For `ACATCACC`, the E-score was 0.0569.
`GATGCAGC` has an E-score of -0.0617.
The E-score of `ACCTTAGT` is reported as -0.116.
The E-score of `CGCCGTCC` is reported as 0.415.
The E-score of `ATACATAA` is reported as -0.246.

For quick reference, copied from above (block 3):
`GACGGTATCGACACTGTGGACGTGCTA` — result for “fitted relative affinity”: 0.674 z-score.
For `TTAGGTTGCGGTTCCGGTTAGTGCTAG`, “fitted relative affinity” read 6.31 z-score.
`GCCGGTTTCGGTTTCGGGACGTGCTAG`: “fitted relative affinity” 11.1 z-score.
For `TCAATTTTCCCCTACTGACTGTGCTAG`, “fitted relative affinity” read 1.68 z-score.
For `TCAGTTCTCTTTTATTTACTGTGCTAG`, “fitted relative affinity” read 3.49 z-score.
